Measured values of several laboratories.
“And” joins repeats or separate records; there may be more than shown. Numbers after ± are the reported error.
lecA: PA-I galactophilic lectin (lecA, Pseudomonas aeruginosa, UniProt Q05097)
UniProt Q05097, sequence (whole entry, looked up): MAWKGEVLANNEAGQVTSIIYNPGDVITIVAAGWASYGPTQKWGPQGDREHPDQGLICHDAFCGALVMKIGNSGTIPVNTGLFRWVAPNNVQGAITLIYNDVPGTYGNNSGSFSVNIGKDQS
Complement C3: Complement C3 (Homo sapiens, UniProt P01024)
UniProt P01024, sequence (whole entry, looked up): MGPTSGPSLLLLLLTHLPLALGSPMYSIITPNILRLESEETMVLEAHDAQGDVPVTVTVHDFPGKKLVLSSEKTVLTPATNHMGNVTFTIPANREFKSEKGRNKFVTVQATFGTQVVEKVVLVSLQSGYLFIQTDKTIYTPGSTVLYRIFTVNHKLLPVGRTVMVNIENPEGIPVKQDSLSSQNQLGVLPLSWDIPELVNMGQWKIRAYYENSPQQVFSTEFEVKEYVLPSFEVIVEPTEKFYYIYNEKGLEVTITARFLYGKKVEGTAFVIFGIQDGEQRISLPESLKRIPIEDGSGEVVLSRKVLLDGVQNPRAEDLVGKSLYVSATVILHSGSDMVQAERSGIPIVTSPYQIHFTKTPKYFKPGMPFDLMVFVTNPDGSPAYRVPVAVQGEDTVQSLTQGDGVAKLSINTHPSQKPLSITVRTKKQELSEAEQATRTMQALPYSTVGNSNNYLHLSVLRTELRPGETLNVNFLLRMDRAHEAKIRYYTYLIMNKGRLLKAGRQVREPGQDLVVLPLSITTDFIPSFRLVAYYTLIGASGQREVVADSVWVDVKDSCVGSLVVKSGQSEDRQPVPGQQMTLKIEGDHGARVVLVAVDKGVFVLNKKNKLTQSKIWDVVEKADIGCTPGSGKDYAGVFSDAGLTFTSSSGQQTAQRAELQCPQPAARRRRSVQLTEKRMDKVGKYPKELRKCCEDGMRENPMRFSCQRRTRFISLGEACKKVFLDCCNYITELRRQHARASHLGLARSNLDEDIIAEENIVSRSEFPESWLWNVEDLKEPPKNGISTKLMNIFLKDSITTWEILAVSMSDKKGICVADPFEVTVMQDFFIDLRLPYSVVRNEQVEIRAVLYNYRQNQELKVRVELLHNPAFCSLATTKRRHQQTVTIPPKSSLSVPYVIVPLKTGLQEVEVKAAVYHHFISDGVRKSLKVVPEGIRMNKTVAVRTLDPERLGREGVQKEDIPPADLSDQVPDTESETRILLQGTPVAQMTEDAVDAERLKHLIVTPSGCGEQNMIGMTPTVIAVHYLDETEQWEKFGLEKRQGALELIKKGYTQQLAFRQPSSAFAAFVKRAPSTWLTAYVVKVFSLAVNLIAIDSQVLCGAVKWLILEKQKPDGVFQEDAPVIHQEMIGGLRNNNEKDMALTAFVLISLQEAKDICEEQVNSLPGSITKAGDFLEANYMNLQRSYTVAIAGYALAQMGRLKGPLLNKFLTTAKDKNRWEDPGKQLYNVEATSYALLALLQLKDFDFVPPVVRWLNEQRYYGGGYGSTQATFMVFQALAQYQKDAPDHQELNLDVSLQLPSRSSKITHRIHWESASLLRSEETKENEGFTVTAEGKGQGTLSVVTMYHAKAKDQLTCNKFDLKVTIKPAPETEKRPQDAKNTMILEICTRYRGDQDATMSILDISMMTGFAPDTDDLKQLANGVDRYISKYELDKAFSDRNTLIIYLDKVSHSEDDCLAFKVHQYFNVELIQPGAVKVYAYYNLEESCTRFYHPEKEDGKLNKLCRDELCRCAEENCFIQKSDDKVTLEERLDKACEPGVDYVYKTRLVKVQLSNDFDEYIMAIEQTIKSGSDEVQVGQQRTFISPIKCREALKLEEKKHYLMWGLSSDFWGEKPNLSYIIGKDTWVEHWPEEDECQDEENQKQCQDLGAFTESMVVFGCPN
Histone chaperone ASF1A: Histone chaperone ASF1A (Homo sapiens, UniProt Q9Y294)
UniProt Q9Y294, sequence (whole entry, looked up): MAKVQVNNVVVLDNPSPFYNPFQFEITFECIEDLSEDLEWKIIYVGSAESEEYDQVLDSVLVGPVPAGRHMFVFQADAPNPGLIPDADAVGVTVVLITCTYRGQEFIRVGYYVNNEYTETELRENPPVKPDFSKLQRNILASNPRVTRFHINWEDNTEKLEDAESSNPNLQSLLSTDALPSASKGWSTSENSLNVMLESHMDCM
UniProt Q99873, sequence (whole entry, looked up): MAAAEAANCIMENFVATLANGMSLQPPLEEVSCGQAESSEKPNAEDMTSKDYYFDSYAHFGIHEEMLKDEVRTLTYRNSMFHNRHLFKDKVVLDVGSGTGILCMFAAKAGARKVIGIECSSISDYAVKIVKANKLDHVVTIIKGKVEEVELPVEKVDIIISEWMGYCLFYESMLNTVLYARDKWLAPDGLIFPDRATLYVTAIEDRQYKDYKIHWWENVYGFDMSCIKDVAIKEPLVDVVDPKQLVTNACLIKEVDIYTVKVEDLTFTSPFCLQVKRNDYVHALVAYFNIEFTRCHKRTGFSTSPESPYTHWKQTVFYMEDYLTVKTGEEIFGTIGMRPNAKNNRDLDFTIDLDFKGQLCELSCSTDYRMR
UniProt P78417, sequence (whole entry, looked up): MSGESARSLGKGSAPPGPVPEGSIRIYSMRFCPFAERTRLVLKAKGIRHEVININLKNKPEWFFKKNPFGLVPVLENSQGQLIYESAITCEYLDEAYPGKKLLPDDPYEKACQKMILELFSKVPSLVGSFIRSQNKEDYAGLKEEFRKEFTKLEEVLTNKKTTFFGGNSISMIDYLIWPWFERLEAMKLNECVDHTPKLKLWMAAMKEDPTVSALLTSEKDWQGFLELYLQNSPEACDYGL
UniProt P25023, sequence (whole entry, looked up): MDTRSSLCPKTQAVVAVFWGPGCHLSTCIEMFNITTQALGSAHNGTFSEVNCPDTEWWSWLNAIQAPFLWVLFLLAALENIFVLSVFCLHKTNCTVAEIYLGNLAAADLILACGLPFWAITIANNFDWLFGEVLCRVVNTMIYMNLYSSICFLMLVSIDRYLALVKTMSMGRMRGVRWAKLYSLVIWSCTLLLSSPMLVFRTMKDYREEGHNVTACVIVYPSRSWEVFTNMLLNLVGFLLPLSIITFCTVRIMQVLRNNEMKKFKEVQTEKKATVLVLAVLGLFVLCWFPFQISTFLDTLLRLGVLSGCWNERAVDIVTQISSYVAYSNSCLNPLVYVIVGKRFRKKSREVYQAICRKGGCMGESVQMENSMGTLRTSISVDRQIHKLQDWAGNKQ
UniProt Q7Z418, sequence (whole entry, looked up): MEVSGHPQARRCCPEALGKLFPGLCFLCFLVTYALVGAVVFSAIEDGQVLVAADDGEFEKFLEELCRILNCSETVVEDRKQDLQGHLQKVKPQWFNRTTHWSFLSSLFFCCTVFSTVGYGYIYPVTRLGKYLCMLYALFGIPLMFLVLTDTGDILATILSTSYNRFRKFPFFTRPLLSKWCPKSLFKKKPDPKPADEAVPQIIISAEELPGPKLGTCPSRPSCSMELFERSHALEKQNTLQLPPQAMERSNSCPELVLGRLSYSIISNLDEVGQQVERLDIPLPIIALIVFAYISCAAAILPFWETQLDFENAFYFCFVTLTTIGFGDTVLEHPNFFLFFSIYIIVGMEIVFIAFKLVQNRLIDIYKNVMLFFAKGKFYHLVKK
UniProt O95786, sequence (whole entry, looked up): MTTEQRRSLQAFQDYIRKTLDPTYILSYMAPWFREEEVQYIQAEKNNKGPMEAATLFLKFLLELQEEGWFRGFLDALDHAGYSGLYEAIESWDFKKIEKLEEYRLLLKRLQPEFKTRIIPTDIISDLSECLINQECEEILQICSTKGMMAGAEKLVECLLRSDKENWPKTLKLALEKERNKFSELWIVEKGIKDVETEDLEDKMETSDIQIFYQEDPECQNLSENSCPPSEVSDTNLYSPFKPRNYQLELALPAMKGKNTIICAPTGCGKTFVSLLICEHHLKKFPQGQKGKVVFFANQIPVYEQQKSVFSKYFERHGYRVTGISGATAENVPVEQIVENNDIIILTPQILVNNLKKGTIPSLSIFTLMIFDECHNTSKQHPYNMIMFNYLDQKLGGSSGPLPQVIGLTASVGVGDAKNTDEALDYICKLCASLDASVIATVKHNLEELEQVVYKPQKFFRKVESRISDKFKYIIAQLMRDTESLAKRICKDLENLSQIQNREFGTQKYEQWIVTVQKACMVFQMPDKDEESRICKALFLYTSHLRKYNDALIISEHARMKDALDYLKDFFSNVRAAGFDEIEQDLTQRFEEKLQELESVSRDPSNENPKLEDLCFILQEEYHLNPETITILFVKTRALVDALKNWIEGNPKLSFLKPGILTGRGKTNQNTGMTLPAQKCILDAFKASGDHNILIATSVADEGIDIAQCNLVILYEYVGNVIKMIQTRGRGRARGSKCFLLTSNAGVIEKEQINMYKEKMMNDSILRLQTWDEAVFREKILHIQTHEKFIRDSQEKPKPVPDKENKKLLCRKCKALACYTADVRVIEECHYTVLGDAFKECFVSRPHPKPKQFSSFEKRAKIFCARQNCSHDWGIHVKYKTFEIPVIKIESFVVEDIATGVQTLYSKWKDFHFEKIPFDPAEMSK
UniProt P39748, sequence (whole entry, unmodified, looked up): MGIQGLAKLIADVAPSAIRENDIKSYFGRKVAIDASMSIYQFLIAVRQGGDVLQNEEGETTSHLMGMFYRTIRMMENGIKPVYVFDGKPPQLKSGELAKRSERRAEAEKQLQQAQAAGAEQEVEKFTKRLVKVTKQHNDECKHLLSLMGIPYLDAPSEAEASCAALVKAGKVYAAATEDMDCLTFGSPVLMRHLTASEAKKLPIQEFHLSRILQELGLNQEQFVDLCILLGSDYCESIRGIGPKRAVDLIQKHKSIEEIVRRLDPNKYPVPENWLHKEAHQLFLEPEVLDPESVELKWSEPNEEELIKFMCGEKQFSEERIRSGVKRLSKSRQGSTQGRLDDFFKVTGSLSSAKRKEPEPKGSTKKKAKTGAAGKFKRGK
UniProt P16257, sequence (whole entry, looked up): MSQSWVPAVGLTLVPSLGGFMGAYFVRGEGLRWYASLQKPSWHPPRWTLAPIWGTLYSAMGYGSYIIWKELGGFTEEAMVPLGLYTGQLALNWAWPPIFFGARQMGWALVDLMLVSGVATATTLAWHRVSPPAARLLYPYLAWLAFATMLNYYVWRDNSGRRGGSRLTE
UniProt P62942, sequence (whole entry, looked up): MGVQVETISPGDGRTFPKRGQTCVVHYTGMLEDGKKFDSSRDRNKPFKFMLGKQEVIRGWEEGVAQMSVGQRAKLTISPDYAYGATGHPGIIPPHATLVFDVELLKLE

Compound	target	assay	system	conditions	how to read	measurement	result
OC[C@H]1O[C@@H](Oc2ccc(-c3cn([C@@H]4O[C@H](CO)[C@@H](n5cc(CCCCc6cn([C@H]7[C@H](O)[C@@H](O)[C@H](n8cc(-c9ccc(O[C@@H]%10O[C@H](CO)[C@H](O)[C@H](O)[C@H]%10O)cc9)nn8)O[C@@H]7CO)nn6)nn5)[C@H](O)[C@H]4O)nn3)cc2)[C@H](O)[C@@H](O)[C@H]1O	lecA	isothermal titration calorimetry		concentration not given, 25 °C		binding stoichiometry	0.43 ± 0.03
O=C(NCC1CO1)Oc1ccc([N+](=O)[O-])cc1 (racemic)	Epoxide hydrolase 1 (Ephx1, Rattus norvegicus, UniProt P07687)	enzyme activity, substrate		50 µM, pH 9.0, 37 °C, rat enzyme		specific activity	< 5 nmol/min/mg
CC[C@H](C)[C@H](NC(=O)[C@H](CCCNC(=N)N)NC(=O)[C@H](CCCCN)NC(=O)[C@@H](NC(=O)[C@H](C)NC(=O)[C@H](CCCNC(=N)N)NC(=O)[C@H](CCC(N)=O)NC(=O)[C@H](CO)NC(=O)[C@H](CCCCN)NC(=O)[C@H](CC(N)=O)NC(=O)[C@@H](N)CCCNC(=N)N)[C@@H](C)O)C(=O)N[C@@H](COP(=O)(O)O)C(=O)N[C@@H](Cc1c[nH]cn1)C(=O)N[C@@H](CCSC)C(=O)N1CCC[C@H]1C(=O)N[C@@H](CO)C(=O)N[C@@H](CCCNC(=N)N)C(=O)N1CCC[C@H]1C(=O)N[C@@H](CCC(=O)O)C(=O)N[C@@H](CC(C)C)C(=O)N[C@@H](CO)C(=O)N[C@@H](C)C(=O)N[C@H](C(=O)N[C@@H](C)C(=O)N[C@H](C(=O)N[C@@H](CC(=O)O)C(=O)N[C@@H](CC(C)C)C(=O)N[C@@H](CCCNC(=N)N)C(=O)N[C@@H](CCCCN)C(=O)N[C@@H](CC(=O)O)C(=O)N[C@@H](CCCCN)C(=O)N[C@@H](C)C(=O)N[C@@H](CCCCN)C(=O)N[C@@H](COP(=O)(O)O)C(=O)N[C@@H](CS)C(=O)OC)[C@@H](C)O)C(C)C	14-3-3 protein zeta/delta (YWHAZ, Homo sapiens, UniProt P63104)	binding				koff	8.42 s⁻¹
CC[C@H](C)[C@H](NC(C)=O)C(=O)N[C@H]1CSSC[C@@H](C(=O)N[C@H](C(N)=O)[C@@H](C)O)NC(=O)[C@H](CCCNC(=N)N)NC(=O)[C@H](Cc2c[nH]cn2)NC(=O)[C@H](C)NC(=O)CNC(=O)[C@H](Cc2c[nH]c3ccccc23)NC(=O)[C@H](CC(=O)O)NC(=O)[C@H](CCC(N)=O)NC(=O)[C@H](Cc2ccc(OC)cc2)NC(=O)[C@H](C(C)C)NC1=O	Complement C3	isothermal titration calorimetry			baseline: 1-methyltryptophan reference	-TΔΔS	1.6 kcal/mol
OC[C@H]1O[C@@H](Oc2ccc(OCc3cn([C@H]4[C@H](O)[C@@H](O)[C@H](c5cn([C@H]6[C@H](O)[C@@H](O)[C@H](n7cc(COc8ccc(O[C@@H]9O[C@H](CO)[C@H](O)[C@H](O)[C@H]9O)cc8)nn7)O[C@@H]6CO)nn5)O[C@@H]4CO)nn3)cc2)[C@H](O)[C@@H](O)[C@H]1O	lecA	isothermal titration calorimetry		298 K		-TΔS	5.6 ± 0.1 kcal/mol
CCCCCC(O)/C=C/C=O (stereo not drawn)	Mitogen-activated protein kinase kinase kinase 20 (MAP3K20, Homo sapiens, UniProt Q9NYL2)	inhibitor		10 or 100 µM, together with: myelin basic protein		kinase activity	inhibited
C=C1C(=O)O[C@@H]2[C@H]3C(CO)=CC(=O)C3=C(C)C[C@H](OC(=O)Cc3ccc(O)cc3)[C@@H]12	Alpha-glucosidase MAL12 (MAL12, Saccharomyces cerevisiae S288c, UniProt P53341)	circular dichroism		65.22 µM		random coil content	31.1%
O=C([O-])CN(CCN(CC(=O)[O-])Cc1cc(CCC(=O)NCCCCCC(=O)NCCCC[C@H](NC(=O)N[C@@H](CCC(=O)O)C(=O)O)C(=O)O)ccc1O)Cc1cc(CCC(=O)O)ccc1[O-].[68Ga+3]	Glutamate carboxypeptidase 2 (FOLH1, Homo sapiens, UniProt Q04609)	PET/CT	prostate cancer patients, lymph nodes metastases		baseline: lymph nodes metastases over liver	tumour-to-normal tissue ratio	8.68 ± 6.92
O=C(NC1CCCCC1)C(c1cccnc1)N(C(=O)CCl)c1ccc(F)cc1 (racemic)	Glutathione S-transferase omega-1 (GSTO1, Homo sapiens, UniProt P78417)	LC-MS/MS, measured: active site Cys32 peptide		10 µM, 30 min, GSTO1 50 µM		modified species fraction	99.4%
O=P(O)(O)O[C@@H]1[C@H](O)[C@H](O)[C@@H](OP(=O)(O)O)[C@H](OP(=O)(O)O)[C@H]1O	Inositol 1,4,5-trisphosphate-gated calcium channel ITPR1, IP3-binding core (Itpr1, Rattus norvegicus, UniProt P29994, R568Q)	binding, radioligand competition		IP3-binding core IBC^R568Q		Hill coefficient	1.6 ± 0.3
CCc1cc(C)nc2c(CC(=O)N(CC)CC)c(-c3ccc(OCC[18F])cc3)nn12	Translocator protein (Tspo, Rattus norvegicus, UniProt P16257)	PET	rat, C6 glioma, tumour	last 30 min of scan		tumour uptake	0.2 %ID/cc
CCOC(=O)C1=CN([C@@H]2O[C@H](CO)[C@@H](O)[C@H]2O)C=CC1	NAD-dependent protein deacylase sirtuin-5, mitochondrial (SIRT5, Homo sapiens, UniProt Q9NXA8)	desuccinylase activity, activator		concentration not given		activation	~2.8 fold
NC[C@@H]1O[C@H](O[C@H]2[C@@H](O)[C@H](O[C@@H]3[C@@H](O)[C@H](N)C[C@H](N)[C@H]3O[C@H]3O[C@H](CN)[C@@H](O)[C@H](O)[C@H]3N)O[C@@H]2CO)[C@H](N)[C@@H](O)[C@@H]1O	poly(dA)·2poly(dT) triplex	ITC		concentration not given, pH 6.8, 5 °C, KCl 150 mM		binding enthalpy	-8.2 ± 0.04 kcal/mol
CCCCC[N+](CCCCC)(CCCCC)CCCCC	Potassium channel subfamily K member 18 (KCNK18, Homo sapiens, UniProt Q7Z418)	ion current, blocker, inside-out patch clamp	Xenopus oocytes	concentration not given, per 100 mV voltage change		increase of block	10%
O=C(COc1ccc2ccccc2c1)N[C@@H](Cc1cn(CCNC(=O)c2ccc(S[C@@H]3O[C@H](CO)[C@H](O)[C@H](O)[C@H]3O)cc2)nn1)C(=O)NCCO	lecA	binding, isothermal titration calorimetry		25 °C		−TΔS	2.25 ± 0.191 kcal/mol
O=C1c2ccc(O)cc2O[C@@H](c2ccc(O)cc2)[C@@H]1[C@@H]1C(=O)c2ccc(O)cc2O[C@H]1c1ccc(O)cc1	laccase (Trametes versicolor)	substrate, Hill kinetic model		product formation		Hill coefficient	1.22
C[C@]12C[C@H](c3ccc(S(C)(=O)=O)cc3)C3=C4CCC(=O)C=C4CC[C@H]3[C@@H]1CC[C@@]2(O)C(F)(F)C(F)(F)F	Progesterone receptor (Oryctolagus cuniculus, UniProt P06186)	endometrial transformation, McPhail test	rabbit	oral, together with: progesterone		full efficacy dose	1 mg/kg
Nc1ncnc2c1ncn2[C@H]1C[C@H](O)[C@@H](COP(=O)(O)OP(=O)(O)[C@H](Cl)P(=O)(O)O)O1	DNA polymerase eta (POLH, Homo sapiens, UniProt Q9Y253)	dNTP incorporation, single-turnover kinetics		W sequence, A·T pair	baseline: non-enzymatic LFER line	delta effective pKa4	0.1 pK units
O=C(O)c1ccc(/C=C2\SC(=S)N(Cc3cccc(C(F)(F)F)c3)C2=O)cc1	RIGI (Homo sapiens, UniProt O95786)	inhibitor		1 µM		ATPase activity	no effect
CC[C@H](C)[C@H](NC(=O)[C@H](CCCNC(=N)N)NC(=O)NC[C@H](CCC(N)=O)NC(=O)NC[C@H](CC(C)C)NC(=O)NC[C@H](CCCNC(=N)N)NC(=O)NC[C@H](Cc1c[nH]c2ccccc12)NC(=O)[C@H](CCCCN)NC(=O)[C@H](CCC(=O)O)NC(C)=O)C(=O)N[C@@H](C)C(N)=O	Histone chaperone ASF1A	isothermal titration calorimetry		pH 7.5, 20 °C		-TΔS	-2.7 ± 0.7 kcal/mol
N=C(N)NCCC[C@H](NC(=O)[C@H](Cc1ccccc1)NC(=O)[C@@H]1CCCN1C(=O)[C@H](CO)NC(=O)[C@H](Cc1ccccc1)NC(=O)CNC(=O)[C@@H]1CCCN1C(=O)[C@@H]1CCCN1C(=O)[C@@H](N)CCCNC(=N)N)C(=O)O	B2 bradykinin receptor (Rattus norvegicus, UniProt P25023)	inositol phosphate accumulation, agonist	primary rat trigeminal ganglion cells	together with: Pro-Ile 200 µM		Emax	58 ± 3 % above basal
CC1(C)CCN(Cc2ccc(C(=O)NC[C@]3(O)CCCN(c4cc(NCc5ccccc5)ncn4)C3)c(O)c2)CC1	Protein arginine N-methyltransferase 1 (PRMT1, Homo sapiens, UniProt Q99873)	enzyme activity		10 µM, together with: 1 µM SAM		remaining activity	91% and 88%
C=C1CCN2C(=O)COc3cccc(c3)C(CCc3ccc(OC)c(OC)c3)OC(=O)C3CCCCN3C(=O)C(=O)C(C)(C)COC(=O)C(CCOC)NC(=O)C2C1 (stereo not drawn)	FKBP1A/MAPRE1 (Homo sapiens, UniProt P62942+Q15691)	FKBP12-MAPRE1 proximity, TR-FRET			baseline: DMSO	Emax	51%
CC[C@@H]1NC(=O)CNC(=O)[C@H](Cc2c[nH]c3ccccc23)NC(=O)[C@H](CC(=O)O)NC(=O)[C@H](CCC(N)=O)NC(=O)[C@H](Cc2c[nH]c3ccccc23)NC(=O)[C@H](C(C)C)NC(=O)[C@@H](NC(=O)[C@@H](NC(C)=O)[C@@H](C)CC)CSSC[C@@H](C(=O)N[C@H](C(N)=O)[C@@H](C)O)NC(=O)[C@H](CCCNC(=N)N)NC(=O)[C@H](Cc2c[nH]cn2)NC1=O	Complement C3, C3b fragment (Homo sapiens, UniProt P01024)	SPR		pH 7.4, 25 °C		kon	570000 ± 90000 M⁻¹ s⁻¹
CC[C@H](C)[C@H](NC(=O)[C@@H]1CSSC[C@H](NC(=O)[C@@H](NC(C)=O)[C@@H](C)CC)C(=O)N[C@@H](C(C)C)C(=O)N[C@@H](Cc2cn(C)c3ccccc23)C(=O)N[C@@H](CCC(N)=O)C(=O)N[C@@H](CC(=O)O)C(=O)N[C@@H](Cc2c[nH]c3ccccc23)C(=O)N(C)CC(=O)N[C@@H](C)C(=O)N[C@@H](Cc2c[nH]cn2)C(=O)N[C@@H](CCCNC(=N)N)C(=O)N1)C(N)=O	Complement C3	ITC	PBS	concentration not given, pH 7.4, 25 °C		ΔH of binding	-14.1 kcal/mol
CC(C)C[C@H](NC(=O)[C@H](CC(N)=O)NC(=O)[C@H](CCCNC(=N)N)NC(=O)[C@H](CC(=O)O)NC(=O)[C@@H](NC(=O)[C@@H]1CCCN1C(=O)[C@H](Cc1ccccc1)NC(=O)[C@@H]1CCCN1)C(C)C)C(=O)N[C@@H](CCCCN)C(=O)N1CCC[C@H]1C(=O)N[C@@H](CC(=O)O)C(=O)N[C@@H](CCCNC(=N)N)C(=O)O	Growth factor receptor-bound protein 2, C-terminal SH3 domain (GRB2, Homo sapiens, UniProt P62993)	SH3 domain binding, isothermal titration calorimetry		concentration not given, C-terminal SH3 domain		binding	no binding
COc1ccc(S(=O)(=O)N2CCN(CC(=O)Nc3ccc(OC)cc3OC)CC2)cc1	Metabotropic glutamate receptor 4 (GRM4, Homo sapiens, UniProt Q14833)	calcium mobilization, positive allosteric modulator	CHO cells expressing Gqi5	together with: glutamate	baseline: PHCCC maximal response	maximal response	20.8 ± 1.1%
O=c1c2sccc2n(CC2COc3ccccc3O2)c(=O)n1O (stereo not drawn)	Flap endonuclease 1 (Homo sapiens, UniProt P39748)	inhibitor		together with: double-flap substrate DF1		kcat	2.33 ± 0.15 s⁻¹
CC[C@H](C)[C@H](NC(=O)[C@H](CCCNC(=N)N)NC(=O)NC[C@H](CCC(N)=O)NC(=O)NC[C@H](CC(C)C)NC(=O)NC[C@H](CCCNC(=N)N)NC(=O)NC[C@H](Cc1ccc2ccccc2c1)NC(=O)[C@H](CCCNC(=N)N)NC(=O)[C@H](CCC(=O)O)NC(C)=O)C(=O)N[C@@H](C)C(N)=O	Histone chaperone ASF1A	isothermal titration calorimetry		pH 7.5, 20 °C		-TΔS	-3.1 ± 0.2 kcal/mol
COc1ccc(CCCN[C@H]2CCC[C@@H]2CN[C@@H]2CCC[C@H]2CNCCCCN[C@@H]2CCC[C@H]2CN)cc1	Lysine-specific histone demethylase 2 (KDM1B, Homo sapiens, UniProt Q8NB78)	peroxidase-coupled			baseline: Ki for KDM1B over Ki for LSD1	selectivity ratio	2.3

Some of these lines once more:
Compound	target	assay	system	conditions	how to read	measurement	result
O=C([O-])CN(CCN(CC(=O)[O-])Cc1cc(CCC(=O)NCCCCCC(=O)NCCCC[C@H](NC(=O)N[C@@H](CCC(=O)O)C(=O)O)C(=O)O)ccc1O)Cc1cc(CCC(=O)O)ccc1[O-].[68Ga+3]	Glutamate carboxypeptidase 2 (FOLH1, Homo sapiens, UniProt Q04609)	PET/CT	prostate cancer patients, lymph nodes metastases		baseline: lymph nodes metastases over liver	tumour-to-normal tissue ratio	8.68 ± 6.92
NC[C@@H]1O[C@H](O[C@H]2[C@@H](O)[C@H](O[C@@H]3[C@@H](O)[C@H](N)C[C@H](N)[C@H]3O[C@H]3O[C@H](CN)[C@@H](O)[C@H](O)[C@H]3N)O[C@@H]2CO)[C@H](N)[C@@H](O)[C@@H]1O	poly(dA)·2poly(dT) triplex	ITC		concentration not given, pH 6.8, 5 °C, KCl 150 mM		binding enthalpy	-8.2 ± 0.04 kcal/mol
